Results of several laboratories.
Protocols differ between the studies behind these lines. “And” joins repeats or separate records; there may be more than shown. No end group written: not given here.
B1: bicyclic; chain AATCHCRRSCYSTEYSYGTCTVMGINHRFCCL (also: bicyclic or more (positions not given here))

| Substance | tested on | assay | test system | setting | scale | quantity | result |
| --- | --- | --- | --- | --- | --- | --- | --- |
| colistin | Klebsiella pneumoniae | broth microdilution | clinical isolate RKI-No_95/16 | – | – | MIC | > 64 µg/mL |
| B1 | – | sedimentation velocity AUC | 10 mM sodium phosphate | 40 µM, pH 7.4, 20 °C | – | sedimentation coefficient S20,w | 0.798 S |
| Polymyxin B | – | untargeted LC-MS metabolomics, item: L-lysine | Sprague-Dawley rat, right cerebral cortex | intracerebroventricular, 0.75 mg/kg, 1 h | reference: NaCl control | log2 fold change | -1.4 |
| Teicoplanin | – | ultrafiltration | human serum | time not given, low QC | – | ultrafiltration recovery | 94.6% |
| QSARYRDTEL | human SCRIB PDZ3-4 tandem (MBP fusion) | automated holdup | peptide, crude extract | concentration not given, uncorrected, unit not given | reference: biotin control resin, higher = stronger binding | binding intensity | 0.68 |
| caspofungin | – | – | adult ICU patients, mITT, serum | dose not given, Baseline | – | potassium | 3.9 mmol/L |
| regorafenib N-β-glucuronide | – | – | mouse plasma | 75 ng/mL, 6 months, -80 °C | – | long-term stability accuracy | 101% |
| FNA / CGLSGLGVA-NH2 ([18F]FNA-labelled, C-amide) | – | ex vivo gamma counting | peptide, healthy mouse, pancreas | 60 min post injection | – | tissue uptake | 0.22 %ID/g |
| LVHYTHCGSLGV | Epstein-Barr virus | – | peptide, EBV-infected humanized B-NDG mice | 20 mg/kg, day 42 | – | body weight | 23.4 g and 21.3 g and 22.2 g |
| GSGAGSETVV | human SCRIB PDZ3-4 tandem (MBP fusion) | surface plasmon resonance | peptide | concentration not given | higher = stronger binding | normalised SPR binding response | 0 normalised RU |
| Rilpivirine docusate | – | – | lipid vehicles | up to | – | kinetic solubility | ~500 mg/g |

For quick reference, copied from above:
| Substance | tested on | assay | test system | setting | scale | quantity | result |
| --- | --- | --- | --- | --- | --- | --- | --- |
| Teicoplanin | – | ultrafiltration | human serum | time not given, low QC | – | ultrafiltration recovery | 94.6% |
